Published values gathered from unrelated publications.
Numbered parts are unrelated; each lists some results of a single study.
UniProt O95747, sequence (whole entry, looked up): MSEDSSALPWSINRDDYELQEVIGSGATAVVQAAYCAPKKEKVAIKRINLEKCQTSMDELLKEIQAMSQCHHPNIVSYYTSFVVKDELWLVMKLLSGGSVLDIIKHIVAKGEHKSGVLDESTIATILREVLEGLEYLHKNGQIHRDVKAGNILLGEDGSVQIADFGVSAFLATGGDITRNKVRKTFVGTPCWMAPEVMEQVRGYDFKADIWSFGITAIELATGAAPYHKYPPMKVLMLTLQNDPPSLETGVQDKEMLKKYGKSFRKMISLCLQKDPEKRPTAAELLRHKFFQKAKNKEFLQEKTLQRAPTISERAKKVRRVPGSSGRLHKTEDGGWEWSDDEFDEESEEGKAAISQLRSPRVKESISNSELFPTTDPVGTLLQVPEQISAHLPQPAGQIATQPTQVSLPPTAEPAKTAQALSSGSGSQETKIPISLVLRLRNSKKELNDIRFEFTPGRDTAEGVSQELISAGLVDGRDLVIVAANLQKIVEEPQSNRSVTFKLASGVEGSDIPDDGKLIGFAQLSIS
UniProt Q9UK32, sequence (whole entry, looked up): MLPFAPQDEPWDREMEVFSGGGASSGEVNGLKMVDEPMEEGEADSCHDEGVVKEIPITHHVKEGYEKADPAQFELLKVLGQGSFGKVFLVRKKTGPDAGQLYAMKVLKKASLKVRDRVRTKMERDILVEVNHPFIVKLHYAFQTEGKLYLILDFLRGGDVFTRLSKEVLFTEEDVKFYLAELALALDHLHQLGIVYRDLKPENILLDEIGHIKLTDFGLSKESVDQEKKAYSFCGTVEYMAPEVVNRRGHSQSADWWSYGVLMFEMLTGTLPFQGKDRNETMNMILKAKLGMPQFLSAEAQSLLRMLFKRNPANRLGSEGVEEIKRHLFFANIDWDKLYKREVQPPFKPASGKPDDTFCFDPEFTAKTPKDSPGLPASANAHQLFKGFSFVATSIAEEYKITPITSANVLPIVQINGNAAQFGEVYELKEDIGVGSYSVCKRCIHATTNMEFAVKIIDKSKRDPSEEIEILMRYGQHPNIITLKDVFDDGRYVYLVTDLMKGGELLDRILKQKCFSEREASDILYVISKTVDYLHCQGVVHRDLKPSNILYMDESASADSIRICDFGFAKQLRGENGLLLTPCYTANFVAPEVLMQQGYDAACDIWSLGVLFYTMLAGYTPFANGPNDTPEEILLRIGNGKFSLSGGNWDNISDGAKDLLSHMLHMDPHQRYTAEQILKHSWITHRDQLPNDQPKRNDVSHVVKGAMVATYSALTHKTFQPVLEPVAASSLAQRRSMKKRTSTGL
UniProt P68400, sequence (whole entry, looked up): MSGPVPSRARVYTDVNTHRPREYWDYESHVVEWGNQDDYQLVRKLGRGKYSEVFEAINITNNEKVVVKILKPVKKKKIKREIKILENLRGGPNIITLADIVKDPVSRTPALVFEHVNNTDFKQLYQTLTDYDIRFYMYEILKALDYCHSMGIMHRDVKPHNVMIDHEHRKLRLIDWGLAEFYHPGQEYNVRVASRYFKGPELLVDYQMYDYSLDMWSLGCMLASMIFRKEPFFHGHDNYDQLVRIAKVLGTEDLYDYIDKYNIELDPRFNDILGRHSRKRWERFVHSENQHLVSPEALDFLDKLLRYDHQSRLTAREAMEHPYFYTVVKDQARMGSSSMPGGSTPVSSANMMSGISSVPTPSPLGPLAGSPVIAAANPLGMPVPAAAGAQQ
UniProt Q9UQB9, sequence (whole entry, looked up): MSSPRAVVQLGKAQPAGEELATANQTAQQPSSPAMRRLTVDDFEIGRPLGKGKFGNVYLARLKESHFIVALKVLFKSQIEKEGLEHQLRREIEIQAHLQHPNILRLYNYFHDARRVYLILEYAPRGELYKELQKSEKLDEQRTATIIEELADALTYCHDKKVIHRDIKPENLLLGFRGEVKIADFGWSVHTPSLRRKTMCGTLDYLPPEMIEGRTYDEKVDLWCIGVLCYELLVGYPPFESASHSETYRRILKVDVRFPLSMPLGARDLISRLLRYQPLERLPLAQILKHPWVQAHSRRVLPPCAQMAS
UniProt Q08881, sequence (whole entry, looked up): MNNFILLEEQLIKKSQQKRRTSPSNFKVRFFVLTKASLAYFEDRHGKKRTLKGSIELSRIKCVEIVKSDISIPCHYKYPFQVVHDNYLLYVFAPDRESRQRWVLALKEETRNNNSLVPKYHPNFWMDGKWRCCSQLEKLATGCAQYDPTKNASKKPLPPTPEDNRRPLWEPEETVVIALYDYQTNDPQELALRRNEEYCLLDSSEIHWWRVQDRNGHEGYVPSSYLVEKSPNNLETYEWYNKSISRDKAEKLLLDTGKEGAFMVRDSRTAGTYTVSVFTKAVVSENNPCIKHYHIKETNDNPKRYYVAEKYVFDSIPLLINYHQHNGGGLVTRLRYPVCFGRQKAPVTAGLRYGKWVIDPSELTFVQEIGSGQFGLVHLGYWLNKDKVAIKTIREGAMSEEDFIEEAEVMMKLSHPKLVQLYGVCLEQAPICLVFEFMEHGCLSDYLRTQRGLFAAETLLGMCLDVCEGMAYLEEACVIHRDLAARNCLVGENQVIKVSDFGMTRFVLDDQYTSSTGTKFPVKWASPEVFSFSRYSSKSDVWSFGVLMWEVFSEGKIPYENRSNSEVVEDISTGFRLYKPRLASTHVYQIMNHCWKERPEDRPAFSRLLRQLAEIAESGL
UniProt P52564, sequence (whole entry, looked up): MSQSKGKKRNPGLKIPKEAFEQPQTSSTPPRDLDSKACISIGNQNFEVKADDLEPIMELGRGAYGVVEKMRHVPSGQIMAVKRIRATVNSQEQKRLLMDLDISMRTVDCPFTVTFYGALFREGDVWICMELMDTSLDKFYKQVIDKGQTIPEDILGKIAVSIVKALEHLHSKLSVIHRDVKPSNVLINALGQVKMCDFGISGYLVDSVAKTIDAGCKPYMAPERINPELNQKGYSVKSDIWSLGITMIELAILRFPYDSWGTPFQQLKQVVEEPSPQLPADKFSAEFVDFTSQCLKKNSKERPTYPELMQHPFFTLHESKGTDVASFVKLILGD
UniProt Q9NRM7, sequence (whole entry, looked up): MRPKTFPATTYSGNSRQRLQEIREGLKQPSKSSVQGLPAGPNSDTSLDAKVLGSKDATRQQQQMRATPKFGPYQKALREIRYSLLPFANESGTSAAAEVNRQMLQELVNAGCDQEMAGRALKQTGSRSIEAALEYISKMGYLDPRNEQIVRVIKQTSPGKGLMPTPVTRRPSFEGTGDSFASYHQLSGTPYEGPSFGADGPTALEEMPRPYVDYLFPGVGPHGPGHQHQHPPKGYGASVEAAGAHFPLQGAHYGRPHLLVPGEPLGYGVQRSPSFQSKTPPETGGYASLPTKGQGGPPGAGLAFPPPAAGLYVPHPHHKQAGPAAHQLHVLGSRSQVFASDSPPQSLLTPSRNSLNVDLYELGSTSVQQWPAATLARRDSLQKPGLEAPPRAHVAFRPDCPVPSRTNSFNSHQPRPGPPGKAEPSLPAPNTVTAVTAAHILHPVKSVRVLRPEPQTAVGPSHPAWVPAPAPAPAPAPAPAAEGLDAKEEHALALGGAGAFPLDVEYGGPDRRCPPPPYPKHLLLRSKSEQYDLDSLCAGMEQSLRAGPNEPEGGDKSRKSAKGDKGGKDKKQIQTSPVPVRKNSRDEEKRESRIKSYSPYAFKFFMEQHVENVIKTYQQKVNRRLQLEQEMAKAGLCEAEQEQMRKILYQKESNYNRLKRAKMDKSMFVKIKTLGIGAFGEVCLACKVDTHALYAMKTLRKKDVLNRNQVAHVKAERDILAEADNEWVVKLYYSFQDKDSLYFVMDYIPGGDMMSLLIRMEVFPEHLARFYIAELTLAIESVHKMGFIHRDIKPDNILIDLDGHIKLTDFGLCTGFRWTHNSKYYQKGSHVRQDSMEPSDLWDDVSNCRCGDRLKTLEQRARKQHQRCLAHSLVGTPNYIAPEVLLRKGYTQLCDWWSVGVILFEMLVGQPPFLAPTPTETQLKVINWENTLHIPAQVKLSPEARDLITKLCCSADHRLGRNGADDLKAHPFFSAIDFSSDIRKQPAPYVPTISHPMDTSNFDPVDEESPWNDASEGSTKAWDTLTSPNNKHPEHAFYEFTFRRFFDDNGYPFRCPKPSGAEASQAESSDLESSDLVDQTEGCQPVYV
UniProt P48729, sequence (whole entry, looked up): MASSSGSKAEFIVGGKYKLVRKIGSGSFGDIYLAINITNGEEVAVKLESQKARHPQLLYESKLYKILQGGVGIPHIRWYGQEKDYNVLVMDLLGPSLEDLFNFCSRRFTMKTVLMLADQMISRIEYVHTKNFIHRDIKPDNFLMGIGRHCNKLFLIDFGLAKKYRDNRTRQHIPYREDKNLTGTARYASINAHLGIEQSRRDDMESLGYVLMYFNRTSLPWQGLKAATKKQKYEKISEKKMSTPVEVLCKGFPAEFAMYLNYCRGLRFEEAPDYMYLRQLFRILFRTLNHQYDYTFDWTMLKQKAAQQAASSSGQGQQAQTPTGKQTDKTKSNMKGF
UniProt Q16816, sequence (whole entry, looked up): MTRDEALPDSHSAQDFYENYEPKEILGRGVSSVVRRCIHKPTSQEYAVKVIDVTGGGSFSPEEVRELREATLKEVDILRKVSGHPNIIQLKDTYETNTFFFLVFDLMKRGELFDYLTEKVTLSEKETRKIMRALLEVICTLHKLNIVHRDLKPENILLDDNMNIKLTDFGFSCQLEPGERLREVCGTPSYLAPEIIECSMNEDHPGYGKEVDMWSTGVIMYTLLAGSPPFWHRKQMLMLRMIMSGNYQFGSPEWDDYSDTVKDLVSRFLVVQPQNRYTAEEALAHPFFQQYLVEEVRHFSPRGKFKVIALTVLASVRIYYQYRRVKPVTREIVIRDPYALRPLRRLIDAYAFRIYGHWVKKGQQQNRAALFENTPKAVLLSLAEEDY

Sample 1
Species: mouse
Medium: microsomes or S9
Tested at: 2 µM
Time: 0.5 h
Quantity: remaining compound
CC(=O)c1cccc(NC(=O)c2ccc(C(C)(C)C)cc2)c1: 0.817%
COC(=O)CC(c1cc2ccccc2[nH]c1=O)c1c(Cc2ccccc2)[nH][nH]c1=O (centres unmarked): 69.8%
COc1ccc2c3c1O[C@H]1C[C@@H](O)C=C[C@]31C[C@H](C)N(Cc1ccc(Br)cc1)C2: 47%
O=C(COc1ccc2c3ccccc3n(C(=O)c3ccc(Br)cc3)c2c1)N1CCOCC1: 9%
CC(NC(=O)Nc1ccc(F)cc1Br)c1cn[nH]c1 (centres unmarked): 87.3%
CCCC(=O)Nc1cc(C(=O)NC2CCCCC2)ccc1S(=O)(=O)c1ccc(Cl)cc1: 101%
COc1cc2c(c(OC)c1)C1(CC(C)(C)N2)CC(C)(C)Nc2cc(OC)cc(OC)c21: 59.3%
O=C1CCCC2=C1C(c1ccco1)Nc1ccc3ccccc3c12 (centres unmarked): 11.7%
Cn1nc2n(c1=O)CCN(C(=O)CCn1cnnn1)CC2: > 99%
Brc1ccc2ccnc(N3CCCC3)c2c1: 0.162%
Clc1ccc(Cc2nc3c4cn[nH]c4ncn3n2)cc1: 11.7%

Sample 2
Organism: Plasmodium berghei
Cells: Huh-7
Strain: liver stage
Tested at: 10 µM
Time: 24 h
Relative to: control
Quantity: parasite load
Clc1ccc(COC(Cn2ccnc2)c2ccc(Cl)cc2Cl)cc1 (centres unmarked): 49.7%
CN(C)C(=O)Oc1cccc([N+](C)(C)C)c1: 109%
CC(C)NC[C@@H](O)COc1cccc2ccccc12: 94.8%
CCN(CC)CCOc1ccc(C(=C(Cl)c2ccccc2)c2ccccc2)cc1: 6.68%
CCN(CC)CC#CCOC(=O)C(O)(c1ccccc1)C1CCCCC1 (centres unmarked): 90.5%
CCCNCC(O)COc1ccccc1C(=O)CCc1ccccc1 (centres unmarked): 80.1%
CN(C)c1ccc2nc3ccc(=[N+](C)C)cc-3sc2c1: 18.5%
CN[C@H](CC(C)C)C(=O)N[C@H]1C(=O)N[C@@H](CC(N)=O)C(=O)N[C@H]2C(=O)N[C@H]3C(=O)N[C@H](C(=O)N[C@H](C(=O)O)c4cc(O)cc(O)c4-c4cc3ccc4O)[C@H](O)c3ccc(c(Cl)c3)Oc3cc2cc(c3O[C@@H]2O[C@H](CO)[C@@H](O)[C@H](O)[C@H]2O[C@H]2C[C@](C)(N)[C@H](O)[C@H](C)O2)Oc2ccc(cc2Cl)[C@H]1O: 97.2%
CC(=O)[C@H]1CC[C@H]2[C@@H]3CC=C4C[C@@H](OC(=O)CCC(=O)O)CC[C@]4(C)[C@H]3CC[C@]12C: 50.7%
CC(=O)Nc1ccc(S(=O)(=O)c2ccc(NC(C)=O)cc2)cc1: 110%

Sample 3
Compound: CC[n+]1c(/C=C/N(C)c2ccccc2)n(-c2ccccc2)c2ccc(-c3nc4ccccc4s3)cc21
Observed: enzyme activity
Action: inhibitor
Tested at: 0.5 µM
Relative to: control
Quantity: remaining activity
LYN (Homo sapiens, UniProt P07948): 100%
NEK4 (Homo sapiens, UniProt P51957): 90.5%
MAP2K6 (Homo sapiens, UniProt P52564): 103%
LRRK2 (Homo sapiens, UniProt Q5S007): 95.5%
MAP3K10 (Homo sapiens, UniProt Q02779): 103%
PLK2 (Homo sapiens, UniProt Q9NYY3): 93.1%
CSNK2A1 (Homo sapiens, UniProt P68400): 96.8%
PRKCD (Homo sapiens, UniProt Q05655): 93.3%
WNK2 (Homo sapiens, UniProt Q9Y3S1): 112%
CSNK1A1 (Homo sapiens, UniProt P48729): 106%
BTK (Homo sapiens, UniProt Q06187): 91.6%

Sample 4
Compound: C[C@@H](c1cccc(C#N)c1)n1cc(Cl)cc(C(N)=O)c1=N
Observed: cell-free assay
Technique: competition with immobilised ligand
Tested at: 1 µM
Quantity: remaining binding
Aurora kinase C (AURKC, Homo sapiens, UniProt Q9UQB9): 96%
GRK4 (Homo sapiens, UniProt P32298): 99%
CDK8 (Homo sapiens, UniProt P49336): 92%
FLT3 (Homo sapiens, UniProt P36888, K663Q): 92%
BMP2K (Homo sapiens, UniProt Q9NSY1): 93%
MAP3K15 (Homo sapiens, UniProt Q6ZN16): 98%
Ribosomal protein S6 kinase alpha-6, C-terminal kinase domain (RPS6KA6, Homo sapiens, UniProt Q9UK32): 100%
ITK (Homo sapiens, UniProt Q08881): 82%
OXSR1 (Homo sapiens, UniProt O95747): 93%
LATS2 (Homo sapiens, UniProt Q9NRM7): 80%
PHKG1 (Homo sapiens, UniProt Q16816): 100%
Non-receptor tyrosine-protein kinase TYK2, JH2 (TYK2, Homo sapiens, UniProt P29597): 94%
RIOK2 (Homo sapiens, UniProt Q9BVS4): 83%
PRKG2 (Homo sapiens, UniProt Q13237): 100%
EPHB2 (Homo sapiens, UniProt P29323): 80%

For quick reference, copied from above (sample 4):
Aurora kinase C (AURKC, Homo sapiens, UniProt Q9UQB9): 96%
LATS2 (Homo sapiens, UniProt Q9NRM7): 80%
PRKG2 (Homo sapiens, UniProt Q13237): 100%
FLT3 (Homo sapiens, UniProt P36888, K663Q): 92%
RIOK2 (Homo sapiens, UniProt Q9BVS4): 83%
MAP3K15 (Homo sapiens, UniProt Q6ZN16): 98%
